Measured values from different studies.
Lines come from different studies, so protocols differ.
TMPRSS2: Transmembrane protease serine 2 (TMPRSS2, Homo sapiens, UniProt O15393)
Sequence of UniProt O15393 (whole entry, looked up): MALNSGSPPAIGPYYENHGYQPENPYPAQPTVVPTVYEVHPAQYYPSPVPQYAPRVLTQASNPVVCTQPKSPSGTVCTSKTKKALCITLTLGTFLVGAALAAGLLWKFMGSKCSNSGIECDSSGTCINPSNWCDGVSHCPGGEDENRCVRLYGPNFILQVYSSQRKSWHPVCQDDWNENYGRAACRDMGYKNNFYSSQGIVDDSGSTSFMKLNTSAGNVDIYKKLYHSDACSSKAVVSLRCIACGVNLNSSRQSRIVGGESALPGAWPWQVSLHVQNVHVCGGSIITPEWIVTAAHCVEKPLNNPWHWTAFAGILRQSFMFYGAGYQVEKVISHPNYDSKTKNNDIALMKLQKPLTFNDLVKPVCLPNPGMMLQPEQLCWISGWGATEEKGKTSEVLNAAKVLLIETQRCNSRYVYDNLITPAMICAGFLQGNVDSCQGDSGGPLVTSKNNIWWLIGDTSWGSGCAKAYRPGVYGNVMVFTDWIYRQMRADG
PFF0160c E182D: Dihydroorotate dehydrogenase (quinone), mitochondrial (PFF0160c, Plasmodium falciparum, UniProt Q08210, E182D)
Sequence of UniProt Q9Y271 (whole entry, looked up): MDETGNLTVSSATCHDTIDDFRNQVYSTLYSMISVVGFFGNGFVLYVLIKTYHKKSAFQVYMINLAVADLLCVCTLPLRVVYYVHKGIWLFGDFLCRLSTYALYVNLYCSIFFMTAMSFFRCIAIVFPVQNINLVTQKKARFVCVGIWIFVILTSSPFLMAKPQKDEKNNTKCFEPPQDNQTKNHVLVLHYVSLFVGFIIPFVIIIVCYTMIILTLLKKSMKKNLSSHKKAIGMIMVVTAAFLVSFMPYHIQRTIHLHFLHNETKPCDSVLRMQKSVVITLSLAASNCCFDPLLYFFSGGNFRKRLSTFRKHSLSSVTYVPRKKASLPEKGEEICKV
Sequence of UniProt Q8TDR2 (whole entry, looked up): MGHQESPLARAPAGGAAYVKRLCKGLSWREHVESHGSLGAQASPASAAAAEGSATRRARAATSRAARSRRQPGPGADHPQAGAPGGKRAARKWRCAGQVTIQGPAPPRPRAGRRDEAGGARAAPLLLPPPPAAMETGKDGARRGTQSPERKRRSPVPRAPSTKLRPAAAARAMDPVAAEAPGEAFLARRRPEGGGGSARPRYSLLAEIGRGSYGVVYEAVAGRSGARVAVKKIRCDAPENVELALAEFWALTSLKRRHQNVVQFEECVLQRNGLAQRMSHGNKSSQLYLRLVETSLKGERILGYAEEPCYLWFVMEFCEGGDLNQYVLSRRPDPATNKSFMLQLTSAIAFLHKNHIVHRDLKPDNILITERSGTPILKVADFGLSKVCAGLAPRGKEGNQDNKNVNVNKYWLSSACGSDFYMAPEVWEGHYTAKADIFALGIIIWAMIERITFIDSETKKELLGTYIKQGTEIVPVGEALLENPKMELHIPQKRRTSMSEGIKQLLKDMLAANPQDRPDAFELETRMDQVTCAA
Sequence of UniProt P35367 (whole entry, looked up): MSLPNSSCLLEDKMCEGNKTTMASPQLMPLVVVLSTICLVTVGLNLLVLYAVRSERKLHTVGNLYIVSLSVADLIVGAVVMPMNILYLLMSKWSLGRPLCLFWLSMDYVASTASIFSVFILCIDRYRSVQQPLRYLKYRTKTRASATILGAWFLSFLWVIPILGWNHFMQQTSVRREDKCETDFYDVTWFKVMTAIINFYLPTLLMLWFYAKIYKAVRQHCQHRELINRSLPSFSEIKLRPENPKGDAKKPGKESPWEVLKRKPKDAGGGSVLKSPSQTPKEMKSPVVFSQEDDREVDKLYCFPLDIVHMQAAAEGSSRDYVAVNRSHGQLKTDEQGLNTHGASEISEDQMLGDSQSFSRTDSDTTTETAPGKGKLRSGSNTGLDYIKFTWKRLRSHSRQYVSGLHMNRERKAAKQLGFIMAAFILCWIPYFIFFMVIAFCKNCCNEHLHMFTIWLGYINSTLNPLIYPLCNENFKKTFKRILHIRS
Sequence of UniProt O43318 (whole entry, looked up): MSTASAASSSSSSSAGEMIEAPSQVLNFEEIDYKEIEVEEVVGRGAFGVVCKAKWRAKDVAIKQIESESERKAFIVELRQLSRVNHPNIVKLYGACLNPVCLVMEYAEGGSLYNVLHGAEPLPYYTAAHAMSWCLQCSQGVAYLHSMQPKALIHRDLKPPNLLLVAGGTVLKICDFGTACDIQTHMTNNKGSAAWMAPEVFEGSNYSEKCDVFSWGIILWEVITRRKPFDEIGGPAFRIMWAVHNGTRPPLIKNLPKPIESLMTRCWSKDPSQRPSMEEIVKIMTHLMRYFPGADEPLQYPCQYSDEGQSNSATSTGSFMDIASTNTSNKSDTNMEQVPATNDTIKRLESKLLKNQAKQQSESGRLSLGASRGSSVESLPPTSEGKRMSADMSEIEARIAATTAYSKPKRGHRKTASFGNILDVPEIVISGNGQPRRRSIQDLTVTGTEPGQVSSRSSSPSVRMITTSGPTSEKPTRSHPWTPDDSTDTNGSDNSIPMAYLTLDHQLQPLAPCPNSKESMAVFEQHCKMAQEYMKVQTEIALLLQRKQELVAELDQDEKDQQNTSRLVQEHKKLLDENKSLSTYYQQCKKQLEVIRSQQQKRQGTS
Sequence of UniProt P0C1S8 (whole entry, looked up): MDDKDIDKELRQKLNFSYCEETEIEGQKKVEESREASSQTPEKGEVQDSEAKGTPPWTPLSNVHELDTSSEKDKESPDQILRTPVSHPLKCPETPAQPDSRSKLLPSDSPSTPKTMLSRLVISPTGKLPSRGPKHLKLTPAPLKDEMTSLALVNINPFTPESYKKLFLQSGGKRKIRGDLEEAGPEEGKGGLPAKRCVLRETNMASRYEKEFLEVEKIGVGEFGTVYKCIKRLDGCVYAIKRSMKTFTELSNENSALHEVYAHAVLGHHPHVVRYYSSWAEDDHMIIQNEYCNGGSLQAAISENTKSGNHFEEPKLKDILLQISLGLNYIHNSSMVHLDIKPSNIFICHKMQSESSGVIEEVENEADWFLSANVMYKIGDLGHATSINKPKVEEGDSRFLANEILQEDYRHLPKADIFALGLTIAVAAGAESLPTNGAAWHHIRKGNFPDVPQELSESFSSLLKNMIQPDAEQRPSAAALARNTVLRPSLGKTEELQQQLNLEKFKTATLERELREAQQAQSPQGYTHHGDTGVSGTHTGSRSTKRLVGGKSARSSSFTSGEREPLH
Sequence of UniProt P07711 (whole entry, looked up): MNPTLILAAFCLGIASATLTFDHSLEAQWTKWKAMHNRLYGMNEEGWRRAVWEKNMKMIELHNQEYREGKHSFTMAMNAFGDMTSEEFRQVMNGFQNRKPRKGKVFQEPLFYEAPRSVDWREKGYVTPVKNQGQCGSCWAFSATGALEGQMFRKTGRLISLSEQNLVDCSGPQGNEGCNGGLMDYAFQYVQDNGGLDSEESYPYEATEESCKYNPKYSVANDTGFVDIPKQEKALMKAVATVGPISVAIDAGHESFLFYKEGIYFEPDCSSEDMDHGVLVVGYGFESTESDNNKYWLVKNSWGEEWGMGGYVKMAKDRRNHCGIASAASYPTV
Sequence of UniProt P22303 (whole entry, looked up): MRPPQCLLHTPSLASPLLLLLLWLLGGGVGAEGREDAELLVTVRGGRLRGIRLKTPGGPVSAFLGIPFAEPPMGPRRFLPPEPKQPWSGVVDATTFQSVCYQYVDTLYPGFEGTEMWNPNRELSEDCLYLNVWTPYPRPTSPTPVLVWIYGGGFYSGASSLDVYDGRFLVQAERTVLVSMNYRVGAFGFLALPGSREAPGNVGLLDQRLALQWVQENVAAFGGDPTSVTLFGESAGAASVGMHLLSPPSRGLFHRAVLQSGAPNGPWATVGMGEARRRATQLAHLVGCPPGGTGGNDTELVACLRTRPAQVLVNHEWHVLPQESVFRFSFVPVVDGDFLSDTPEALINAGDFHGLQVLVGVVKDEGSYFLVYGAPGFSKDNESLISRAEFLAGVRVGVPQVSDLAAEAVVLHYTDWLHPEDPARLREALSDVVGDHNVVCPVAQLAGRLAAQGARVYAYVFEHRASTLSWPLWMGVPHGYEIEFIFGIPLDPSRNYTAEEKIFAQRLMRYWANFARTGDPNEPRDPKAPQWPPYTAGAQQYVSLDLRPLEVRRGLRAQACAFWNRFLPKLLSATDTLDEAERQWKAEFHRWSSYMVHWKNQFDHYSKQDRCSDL

Structure (SMILES)	target or system	assay	test system	setting	endpoint	value
COC(=O)c1cc(-c2cccc(NC(=O)Nc3cccc(Cl)c3)c2)on1	Pseudomonas aeruginosa	microbial growth, broth dilution	ATCC27853	–	MIC	> 64 µg/mL
N=C(N)NCCC[C@@H](NC(=O)[C@H](Cc1ccccc1)NC(=O)[C@H](CCC(N)=O)NC(=N)N)C(=O)c1nc2ccccc2s1	TMPRSS2	enzyme activity, inhibitor	–	1 nM	activity vs control	48%
c1cncc([C@@H]2CCCN2)c1	HRH1 (Homo sapiens, UniProt P35367)	ligand displacement	–	50 µM	inhibition	16%
[2H]c1c([2H])c([C@]2([2H])CCCN2C(=O)C(C)(C)Oc2ccc3cn[nH]c3c2)c([2H])c([2H])c1C([2H])([2H])[2H]	PKN2 (Homo sapiens, UniProt Q16513)	binding, competition with immobilised ligand	–	1 µM	remaining binding	73%
COc1ncccc1-c1cnn2ccc(N3CCN(C(=O)OC(C)C)CC3)nc12	WEE2 (Homo sapiens, UniProt P0C1S8)	binding, competition with immobilised ligand	–	1 µM	remaining binding	100%
CC[C@H](C)[C@@H](NC(=O)[C@H](CCc1ccccc1)NC(=O)CCc1ccccc1)C(=O)N[C@@H](CCCNC(=N)N)C(=O)c1nc2ccccc2s1	TMPRSS2	enzyme activity, inhibitor	–	1 nM	activity vs control	97%
CN1C(=S)N(c2ccccc2)C(=O)/C1=C1/C(=O)N(C)c2ccc(Cl)cc21	ACHE (Homo sapiens, UniProt P22303)	enzyme activity, inhibitor, Ellman	–	10 nM	inhibition	1%
Cc1nn(C)cc1-c1nc2c(N3CCN(Cc4ccc(Cl)cc4)CC3)c(Cl)cnc2[nH]1	MAP3K7 (Homo sapiens, UniProt O43318)	binding, competition with immobilised ligand	–	1 µM	remaining binding	100%
C#Cc1n[nH]c2c(-c3cn([C@@H](C)c4ccccn4)c(=O)[nH]c3=O)cc(F)cc12	PRKCA (Homo sapiens, UniProt P17252)	enzyme activity, inhibitor	–	0.1 µM	inhibition	4.2%
O=C1C=CC(=O)c2c(O)cccc21	Procathepsin L (CTSL, Homo sapiens, UniProt P07711)	enzyme activity, inhibitor	–	100 µM	remaining activity	64%
C[C@H](NC(=O)[C@H](CCC(N)=O)NC(=O)[C@H](CCCNC(=N)N)NS(C)(=O)=O)C(=O)N[C@H](CCCNC(=N)N)C(=O)c1nc2ccccc2s1	TMPRSS2	enzyme activity, inhibitor	–	1 nM	activity vs control	20%
CC(c1ccc(Cl)c(Cl)c1)c1nn2c(-c3ccccc3F)nnc2s1 (stereo not shown)	PFF0160c E182D	enzyme activity, inhibitor, absorbance	–	–	IC50	1.06 µM
CC(C)CC(=O)OC[C@H]1O[C@@](C#N)(c2ccc3c(N)ncnn23)[C@H](O)[C@@H]1O	CYSLTR1 (Homo sapiens, UniProt Q9Y271)	cell-free assay	–	20 µM	inhibition	-7%
Nc1ncc(-c2nc(N3CCOCC3)nc(N3CCOCC3)n2)c(C(F)F)n1	STK35 (Homo sapiens, UniProt Q8TDR2)	binding, competition with immobilised ligand	–	10 µM	remaining binding	55%
N=C(N)NCCC[C@H](NC(=O)[C@H](Cc1ccc(-c2ccccc2)cc1)NC(=O)[C@H](Cc1ccc(O)cc1)NC(=O)CCc1ccccc1)C(=O)c1nc2ccccc2s1	TMPRSS2	enzyme activity, inhibitor	–	1 nM	activity vs control	104%
COc1ccc(Cl)c2c1NC(=O)C2NC(C)=O (stereo not shown)	PFF0160c E182D	enzyme activity, inhibitor, absorbance	–	–	IC50	> 10 µM
